Assay results gathered from unrelated publications.
Lines come from different studies, so protocols differ.
Cell line: SH-SY5Y

| SMILES | assay | setting | IC50 |
| --- | --- | --- | --- |
| OCn1cnc2ccccc21 | cell growth, MTT | 24 h | 17.7 µM |
| Cc1c(COc2cc(OCc3cccc(C#N)c3)c(CN3CCCC[C@H]3C(=O)O)cc2Cl)cccc1-c1cccc(OCCCCCC(=O)NO)c1 | cell growth or viability, CCK-8 | 48 h | > 20 µM |
| CC(=O)OC1OC(OC(C)=O)C2CC(O)(C3(C)CCCC(C)(C)C3)CCC12 (stereo not drawn) | cytotoxicity, MTT | 24 h | 6.5 µM |
| Cc1cc(C)n(CO)n1 | cell growth or viability, MTT | 24 h | 62.6 µM |
| O=S(=O)(c1ccc2c(c1)OCO2)n1cc(CCCCN2CCC(=C(c3ccc(F)c(F)c3)c3ccc(F)c(F)c3)CC2)nn1 | cell growth or viability, ATP luminescence | 48 h | 4.42 µM |
| CC(=O)O[C@H]1OC[C@@H]2C=C([C@]3(C)CCCC(C)(C)C3)CC[C@H]12 | cytotoxicity, MTT | 24 h | 7.9 µM |
| O=C(CCCCCCC(=O)Nc1ccccc1)NO | cell growth or viability, CCK-8 | 48 h | 7.72 µM |
| CCCCCCCCCCCC(=O)Oc1c(C)c(OC)c2c(/C=C/c3ccccc3)c(CCCCCCCCCC)c(=O)oc2c1C | cell growth or viability, SRB | 72 h | > 50 µM |
| CCOC(=O)c1cc(C)n(Cn2cnc3ccccc32)n1 | cell growth, MTT | 24 h | 121 µM |
| CCCCCCCCCC(=O)Oc1c(C)c(OC)c2c(/C=C/c3ccccc3)c(CCCCCCCC)c(=O)oc2c1C | cell growth or viability, SRB | 72 h | > 50 µM |
| Cc1c(COc2cc(OCc3cccc(C#N)c3)c(CNC(CO)CO)cc2Cl)cccc1-c1cccc(OCCCCCCC(=O)NO)c1 | cell growth or viability, CCK-8 | 48 h | > 20 µM |
| COc1c(C)c(OCc2ccccc2)c(C)c(OCc2ccccc2)c1C(=O)/C=C/c1ccccc1 | cell growth or viability, SRB | 72 h | > 50 µM |
| Cc1cc(C)[nH]n1 | cell growth, MTT | 24 h | > 800 µM |
| CCCC(=O)Oc1c(C)c(OC)c2c(c1C)OC(=O)[C@@H](CC)[C@]2(O)/C=C/c1ccccc1 (racemic) | cell growth or viability, SRB | 72 h | > 50 µM |
| Cc1c(COc2cc(OCc3cccc(C#N)c3)c(CN3CCCC[C@H]3C(=O)O)cc2Cl)cccc1-c1cccc(OCCCCCCC(=O)NO)c1 | cell growth or viability, CCK-8 | 48 h | > 20 µM |
